# Experimental data from different studies.
# Compare with care: the assays were run in different laboratories. ± marks the error that the study gave.
# Cell line: SGC-7901
Structure (SMILES),test,conditions,IC50
O=C(/C=C/c1ccc2c(c1)C(=O)N(CCCc1ccccc1)CC2)NO,"cell growth, SRB",72 h,2.38 ± 0.61 µM
CSc1nc(N)c2c(F)c(C#N)c(F)c(Cl)c2n1,"cell growth or viability, MTT",96 h,6.65 µM
O=C1/C(=C/c2ccccc2F)CNC/C1=C\c1ccccc1F,"cell growth or viability, MTT",72 h,6.1 µM
CCC(C)C1OC(=O)C(C)(C)C(=O)C(Cc2ccccc2)OC(=O)C(C(C)C)OC(=O)C(NC(=O)c2cccc(O)c2)C(C)OC1=O (stereo not shown),"cell growth or viability, CCK-8",72 h,16.7 µM
CCCCSc1nc(N)c2c(F)c(C#N)c(F)c(F)c2n1,"cell growth or viability, MTT",96 h,11.6 µM
COc1ccc(C(=O)c2cc(C(=O)c3cc(Cl)ccc3O)c[n+]3c2NCCCC3)cc1,"cell growth or viability, MTT",96 h,10.5 µM
[NH2][Pt]1([NH2])([Cl])([O]C(=O)C(F)(F)F)[O]C(=O)C2(CC(=O)C2)C(=O)[O]1,"cell growth or viability, MTT",,20.2 µM
N#Cc1c(F)c(F)c2nc(SCc3ccccc3)nc(N)c2c1F,"cell growth or viability, MTT",96 h,6.26 µM
[NH2][Pt]1([NH2])([Cl])([O]C(=O)C(Cl)Cl)[O]C(=O)C2(CC(=O)C2)C(=O)[O]1,"cell growth or viability, MTT",,16.8 µM
CC(C)C1OC(=O)C(NC(=O)c2cccc(O)c2)C(C)OC(=O)C(C(C)C)OC(=O)C(C)(C)C(=O)C(Cc2ccccc2)OC1=O (stereo not shown),"cell growth or viability, CCK-8",72 h,> 20 µM

# Excerpt of the above:
Structure (SMILES),test,conditions,IC50
[NH2][Pt]1([NH2])([Cl])([O]C(=O)C(Cl)Cl)[O]C(=O)C2(CC(=O)C2)C(=O)[O]1,"cell growth or viability, MTT",,16.8 µM
CC(C)C1OC(=O)C(NC(=O)c2cccc(O)c2)C(C)OC(=O)C(C(C)C)OC(=O)C(C)(C)C(=O)C(Cc2ccccc2)OC1=O (stereo not shown),"cell growth or viability, CCK-8",72 h,> 20 µM
